Measured values gathered from unrelated publications.
Parts stem from different laboratories: compare values within a part only.

Sample 1 — method: protein-binding microarray; form: double-stranded DNA, one strand shown; medium: in vitro; tested at: 2540 nM top; setting: 60-bp whole probe; together with: salmon DNA 0.4 mg/ml; relative to: random background probes; direction: higher = stronger binding; all sequences stand within: GCCTAGCAC … GTCTTGATTCGCTTGACGCTGCTG
Target: Interferon regulatory factor 3, full length, phosphomimetic (IRF3, Homo sapiens, UniProt Q14653, residues 1-427, S386D/S396D/S398D/S402D/T404D/S405D)
UniProt Q14653, sequence (whole entry, unmodified, looked up): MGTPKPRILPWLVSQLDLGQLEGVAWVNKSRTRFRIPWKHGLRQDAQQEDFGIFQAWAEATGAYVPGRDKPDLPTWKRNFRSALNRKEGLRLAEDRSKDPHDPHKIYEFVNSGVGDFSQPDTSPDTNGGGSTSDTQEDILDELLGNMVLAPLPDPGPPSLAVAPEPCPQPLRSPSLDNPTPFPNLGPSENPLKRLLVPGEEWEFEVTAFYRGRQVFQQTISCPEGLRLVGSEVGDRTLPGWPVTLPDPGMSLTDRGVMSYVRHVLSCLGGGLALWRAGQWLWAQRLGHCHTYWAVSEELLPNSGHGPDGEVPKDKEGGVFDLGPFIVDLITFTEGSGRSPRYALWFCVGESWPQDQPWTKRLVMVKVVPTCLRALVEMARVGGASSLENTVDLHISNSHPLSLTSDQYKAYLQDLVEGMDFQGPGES
| Oligonucleotide | fitted relative affinity |
| --- | --- |
| CTTTAACTTATTCTCTACTTGTGCTAG | 1.25 z-score |
| GAGGGACTGGGGTATCGGGACGTGCTA | -0.691 z-score |
| CTTGATTTTGGTCTTTCTGTGTGCTAG | 0.47 z-score |
| GAAGGTATCGGGTTTCGGGACGTGCTA | 2.71 z-score |
| TTAGTTTTCGGGACTGGATTAGTGCTA | 2 z-score |
| TTTGGTTTCGGTATCGGTTAGTGCTAG | 9.46 z-score |
| TCTTGTCTGGAGTCTCTGTTCGTGCTA | -0.181 z-score |
| TTTTGCTTTCTTTTTGCACTGTGCTAG | 4.63 z-score |
| GACGGTATCGACTATTGGGACGTGCTA | 0.414 z-score |
| TCACTTCTCCCTTTCAGACTGTGCTAG | 3.1 z-score |
| TCAAGTTTTCTTTTCATACTGTGCTAG | 4.98 z-score |
| GACGGTTTCGACTATCGAGACGTGCTA | 3 z-score |
| GGAGCGCCAGGCCCCGGCAGGTGCTAG | -1.51 z-score |
| GACGCACTGGACACTGGGGACGTGCTA | -0.634 z-score |
| TTAGGAATCGACTTTCGGTTAGTGCTA | 1.72 z-score |
| GACGGATTGGACACTGGGGACGTGCTA | -0.222 z-score |
| TTAGGACCGGACTTTCGGTTAGTGCTA | 1.4 z-score |
| AATCATTCACCTGTCGTTGAGTGCTAG | 0.48 z-score |
| TTAGGTCTCGGACTGGATTAGTGCTAG | -0.274 z-score |

Sample 2 — method: RNA Bind-n-Seq; form: RNA; medium: in vitro; tested at: 365 nM; relative to: no-protein control; direction: higher = stronger binding
Target: RNA binding protein fox-1 homolog 2, RRM domain, GST-SBP tag (RBFOX2, Homo sapiens, UniProt O43251-10, residues 100-194)
Setting: natural RNA segment, single round, ends assumed
All sequences stand within: GGGAGUUCUACAGUCCGACGAUC … UGGAAUUCUCGGGUGCCAA
Target sequence (chain): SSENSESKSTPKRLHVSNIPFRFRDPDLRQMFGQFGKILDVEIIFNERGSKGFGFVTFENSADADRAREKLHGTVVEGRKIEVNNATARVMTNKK
| Oligonucleotide | RBNS enrichment (R) |
| --- | --- |
| ACCCUUAGGCUCCAAAAAUUUGCCUGCCUUUGAGAGAACAACAAACAGGUCUUUUCUCUCUCCUUUAUGGUACUUCUCAGAACAAGAGAAACUGAGUUAGGGCUUGAGUC | 0.738 |
| UGCCCAGGCCACACUAGUUGGCCCCAGCACUCUACCUUAGGCCCAGGCUGGCCACAGGCAGUGGGCAGCUCACUUGCUGCAGUGUCAUAGCAAUAAAAUGUGAUUCUUGG | 0.292 |
| AAAUGAAUUUUUACUAUGGCAGAUAUGGUAUGGAUCGUAAAAUUUUAAGCACUAAAAAUUUUUUCAUAACCUUUCAUAAUAAAGUUUAAUAAUAGGUUUAUUAACUGAAU | 2.5 |
| GUUGGAACGCCACGGUUGCCAGACCAUUCCUUCCAUCUAACUGCGUAUUACACAAGGGCAUCGAGUUCCAGGUGCCCCCCUUUUAGGACAGAGUUGUUUCCCAAUUCUGG | 0.252 |
| UCGUUCAUUAAACUGACAGAUAUUUUUCUAGGAAGGACUAUUAUCAGUUUCCAAAUGCAAUACUCUAUUCUGGUUUUUCCUGAGUGAGCCUGAUUUUGUUCCUGUUUUUC | 0.374 |
| UCCCCUACCCCUCUAUCAUUUAGUUUCUUCUGCGCAAGCCACUCUGGCUUCCUUUCAGUUUUGUGGUUCCCAUUUUUAGCUAGUUCAGUGGUUUUCAAUGGGCAUUUCUG | 0.424 |
| GCCCCACGCUUUUCUCUCUUCCUUCCCCUCUCAUUCUCCCUCUAAUGUGUGGUGCUUUGGUGAGCAAACCCUCAGCAGUCCUGACCUUCGGGUGACCAGGUGCUUGUGAC | 1.5 |
| UUUUUAAACAAGAAAAGCUGUGCUCUUUUAUGUGAUGCCUUUUUUAUUUAUUCAGGCUAUACCUACAAUAUGUGAAUCAAACUGUUUAAUGAAUCCUGGGACAUACUGAU | 0.409 |

Sample 3 — method: RNA Bind-n-Seq; form: RNA; medium: in vitro; tested at: not given; relative to: input RNA pool; direction: higher = stronger binding
Target: RING finger protein unkempt homolog, zinc fingers 1-6, GST-SBP tag (UNK, Homo sapiens, UniProt Q9C0B0, residues 30-357)
UniProt Q9C0B0, sequence (30-357, looked up): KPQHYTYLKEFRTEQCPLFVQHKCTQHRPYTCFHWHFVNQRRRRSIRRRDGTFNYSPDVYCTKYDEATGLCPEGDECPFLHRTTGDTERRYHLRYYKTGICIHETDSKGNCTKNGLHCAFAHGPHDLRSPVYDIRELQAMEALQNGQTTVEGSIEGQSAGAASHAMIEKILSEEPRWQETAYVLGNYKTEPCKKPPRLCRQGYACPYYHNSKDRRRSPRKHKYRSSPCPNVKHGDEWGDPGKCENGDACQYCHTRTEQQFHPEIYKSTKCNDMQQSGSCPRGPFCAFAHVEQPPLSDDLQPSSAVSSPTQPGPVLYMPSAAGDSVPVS
Setting: RNA with constant flanks, human and mouse sites, ends assumed
All sequences stand within: GGGAGUUCUACAGUCCGACGAUC … CAACAGAGGAUUGAGCAUCA
| Oligonucleotide | bound/input enrichment [ratio] |
| --- | --- |
| ACCGUGCACAUUGCAUGUACUCCUCAGGCUGCCAAGGCAAUAAGCAACAAGGACCAGCAUAGCAUAUCAUAUACUUUAUCUCGAGCCCAGACGGUGGUGGUUGAAUAUACUCAUGACAGC | 3.2 |
| CCGCGCGGCCGGCCGGCCGACUAGGGUUUGAAGACUGCUUCAUUCUGCCUCUAGUACCAGCGGUUUCUCUGUUCUGUGAUCAAUGUGAUUCACAGGAACUCCUUAAGUAACAAACGAAAU | 0.457 |
| UAGGUCACAGUGACAGGUUUCUGAGUUGUUUCCCUUUUCAAGUCUCUGGGAGGCCAGUGGCAGCAGCAGGUCUGUGUUUCACCUUCUUCCCAUGUGAGCUUGGAAAACUUUGGCAUCUUA | 0.323 |
| UCCACCAACCAGAUCUCCCUCGUGCAGUGGCCAGUGUACAUGGUGGACUAUUCCGGACUAAACGUGCAGCUUCCGGGCCCCCUUGAUUAUUAGACCUCAGAGCCGAAUCAGGACCUCAAC | 0.486 |
| GUAAAGGAAGAUGAAGAAGAAGUUUCAGAUAAGGGCAGUGAUUCUGAAGAAGAAGAAACCAAUAGAGAUUCCCAAAGUGAGAAAGAUGAUGGUAGUGACAGAGACUCUGAUAGAGAGCAA | 0.992 |
| AAGCUUACAGCCUCAGUGGCGAAAAUUUUUUCAUGUCAGAGACCGAGAACUCUUGCAGUCGUUUAUGUCAUCCCUUCUUCUCCAGACAGAAGAUACCAAAAAGUUGCAAUCAAAGAUCUC | 0.146 |
| GCUGGCCCAAGGACUCUAAAUUUCAAAAUAAACAGAGAAUUAUUAACAAAGGCAGUAUUGCAACAAGUUACUGAAGAUGGCUGUAAAUAUGGGUUAAAAAGUGAACUUUUCUCAGAUCUU | 0.28 |
| UUGUGCAGACGGCGAAGCAGCUCCAUCUCAGAAUACAGAAAGCUACGGAGUCCCUGAAGAGCUUUAGACCUGCAGCCCAGGCUUCUUUUGAAGACUAUGUUGUUAACAUAUCGAAACAAA | 0.218 |

Sample 4 — method: protein binding microarray; form: double-stranded DNA, one strand shown; medium: in vitro; tested at: not given; relative to: not given; direction: higher = stronger binding
Target: Histone acetyltransferase KAT6A, winged helix 2, GST fusion (KAT6A, Homo sapiens, UniProt Q92794, residues 85-181)
Setting: 8-mer, flanks averaged, mean of 2 arrays, mostly near background
Residues (chain): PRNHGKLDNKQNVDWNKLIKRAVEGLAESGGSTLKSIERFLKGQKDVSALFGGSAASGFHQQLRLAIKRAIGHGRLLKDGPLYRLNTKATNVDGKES
| Oligonucleotide | E-score |
| --- | --- |
| AGTGTTAA | 0.0105 |
| CATCTAAG | -0.163 |
| CGGTGTAG | -0.0785 |
| GTTGAAGA | -0.0947 |
| TACGTAGA | -0.256 |
| GCAGAGGC | 0.0804 |
| CCTACCAG | -0.12 |
| AGCGGAGC | 0.171 |
| CTCCCGGC | 0.194 |
| ACCACCCA | -0.0513 |
| CACAGGTC | -0.151 |
| AGATCATA | 0.107 |
| CCGACAGG | 0.163 |
| TACGTCCA | -0.146 |
| CGGTTGAC | 0.0742 |
| AAGAGCAG | -0.0498 |
| GTAAGCTA | 0.00077 |
| CCCACTCG | 0.00928 |
| CGCCTCCG | 0.0181 |
| CATTACTC | -0.0153 |
| TCCTTAAA | -0.121 |
| GCTCCGGA | 0.00096 |

Repeated from above (sample 3):
| Oligonucleotide | bound/input enrichment [ratio] |
| --- | --- |
| GUAAAGGAAGAUGAAGAAGAAGUUUCAGAUAAGGGCAGUGAUUCUGAAGAAGAAGAAACCAAUAGAGAUUCCCAAAGUGAGAAAGAUGAUGGUAGUGACAGAGACUCUGAUAGAGAGCAA | 0.992 |
| UUGUGCAGACGGCGAAGCAGCUCCAUCUCAGAAUACAGAAAGCUACGGAGUCCCUGAAGAGCUUUAGACCUGCAGCCCAGGCUUCUUUUGAAGACUAUGUUGUUAACAUAUCGAAACAAA | 0.218 |
| AAGCUUACAGCCUCAGUGGCGAAAAUUUUUUCAUGUCAGAGACCGAGAACUCUUGCAGUCGUUUAUGUCAUCCCUUCUUCUCCAGACAGAAGAUACCAAAAAGUUGCAAUCAAAGAUCUC | 0.146 |
| GCUGGCCCAAGGACUCUAAAUUUCAAAAUAAACAGAGAAUUAUUAACAAAGGCAGUAUUGCAACAAGUUACUGAAGAUGGCUGUAAAUAUGGGUUAAAAAGUGAACUUUUCUCAGAUCUU | 0.28 |
| UAGGUCACAGUGACAGGUUUCUGAGUUGUUUCCCUUUUCAAGUCUCUGGGAGGCCAGUGGCAGCAGCAGGUCUGUGUUUCACCUUCUUCCCAUGUGAGCUUGGAAAACUUUGGCAUCUUA | 0.323 |
| ACCGUGCACAUUGCAUGUACUCCUCAGGCUGCCAAGGCAAUAAGCAACAAGGACCAGCAUAGCAUAUCAUAUACUUUAUCUCGAGCCCAGACGGUGGUGGUUGAAUAUACUCAUGACAGC | 3.2 |
| UCCACCAACCAGAUCUCCCUCGUGCAGUGGCCAGUGUACAUGGUGGACUAUUCCGGACUAAACGUGCAGCUUCCGGGCCCCCUUGAUUAUUAGACCUCAGAGCCGAAUCAGGACCUCAAC | 0.486 |
| CCGCGCGGCCGGCCGGCCGACUAGGGUUUGAAGACUGCUUCAUUCUGCCUCUAGUACCAGCGGUUUCUCUGUUCUGUGAUCAAUGUGAUUCACAGGAACUCCUUAAGUAACAAACGAAAU | 0.457 |
